Values quoted from earlier work that unrelated publications cite.
Protocols differ between the studies behind these lines. ± marks the error that the study gave.
Sequence of UniProt Q8N5S9 (whole entry, looked up): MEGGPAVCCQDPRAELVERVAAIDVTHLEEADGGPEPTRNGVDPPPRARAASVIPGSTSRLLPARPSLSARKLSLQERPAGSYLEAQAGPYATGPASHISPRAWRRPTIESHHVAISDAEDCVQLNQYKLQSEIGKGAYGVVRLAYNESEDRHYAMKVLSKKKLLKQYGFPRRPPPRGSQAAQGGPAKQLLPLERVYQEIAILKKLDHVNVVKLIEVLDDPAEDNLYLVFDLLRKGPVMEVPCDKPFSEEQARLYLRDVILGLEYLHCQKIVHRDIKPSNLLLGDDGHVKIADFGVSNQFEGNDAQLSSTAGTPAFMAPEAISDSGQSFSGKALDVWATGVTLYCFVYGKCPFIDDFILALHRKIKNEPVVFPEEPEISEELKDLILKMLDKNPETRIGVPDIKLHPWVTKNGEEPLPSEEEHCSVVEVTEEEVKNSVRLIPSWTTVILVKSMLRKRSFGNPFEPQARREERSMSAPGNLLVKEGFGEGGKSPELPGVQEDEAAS

Compound = Cc1cc(C)c(CNC(=O)c2cc(Cl)c3c(c2C)O[C@@](C)([C@H]2CC[C@H](N(C)C)CC2)O3)c(=O)[nH]1; test system = human, plasma; setting = oral, 100 mg single dose, study, geometric mean; measurement = AUC(0-inf); value = 4370 ng·h/mL
Compound = CC(C)c1nc(N(C)S(C)(=O)=O)nc(-c2ccc(F)cc2)c1/C=C/[C@@H](O)C[C@@H](O)CC(=O)O; test = BCRP substrate; test system = human, plasma; setting = dose not given, added: pirtobrutinib single dose; measurement = AUC(0-inf); value = 189 ng·h/mL
Compound = C[C@@H](Oc1ccc(S(C)(=O)=O)cc1C(=O)N1C[C@@H]2C[C@]2(c2cc(C(F)(F)F)on2)C1)C(F)(F)F; test system = human; setting = oral, 25 mg, tablet, fasted, single dose; measurement = AUC(0-inf); value = 8.85 µM·h
Compound = COc1cc2c(Oc3ccc4[nH]c(C)cc4c3F)ccnc2cc1OCC1(N)CC1; test system = human, fasting; setting = 5 mg; measurement = AUC(0-inf); value = 486 ± 158 ng·h/mL
Compound = C[C@H]1CO[C@@H]2Cn3cc(C(=O)NCc4ccc(F)cc4F)c(=O)c(O)c3C(=O)N12; test system = human; setting = oral tablet, two 5 mg tablets, geometric mean fasted; measurement = AUC(0-inf); value = 44700 ng·h/mL
Compound = Nc1cc(C(F)(F)F)c(-c2nc(N3CCOCC3)nc(N3CCOCC3)n2)cn1; target or system = CAMKK1 (Homo sapiens, UniProt Q8N5S9); test = enzyme activity; setting = 10 µM; how to read = reference: untreated; measurement = remaining activity; value = 100%
Compound = Cc1nsc(-c2nnc3n2CCN(C(=O)c2ccc(F)cc2)[C@@H]3C)n1; test system = human; setting = oral, 45 mg, single dose, market formulation; measurement = AUC(0-inf); value = 3840 ng·h/mL
Compound = CNCc1cc(-c2ccccc2F)n(S(=O)(=O)c2cccnc2)c1; test system = human; setting = 20 mg, single dose, fasted; measurement = AUC(0-inf); value = 116 ng·h/mL
Compound = Cc1ccccc1CN1C(=O)C2=C(CCN(Cc3ccccc3)C2)N2CCN=C12; test system = human; setting = oral, 625 mg, fasting, without rabeprazole; measurement = AUC(0-inf); value = 21300 ng·h/mL

A few entries again:
Compound = Cc1cc(C)c(CNC(=O)c2cc(Cl)c3c(c2C)O[C@@](C)([C@H]2CC[C@H](N(C)C)CC2)O3)c(=O)[nH]1; test system = human, plasma; setting = oral, 100 mg single dose, study, geometric mean; measurement = AUC(0-inf); value = 4370 ng·h/mL
